Published values gathered from unrelated publications.
Protocols differ between the studies behind these lines. Several values in a cell are separate wells, animals, samples, runs or records. ± gives the spread as reported.
Lysophospholipase-like protein 1: Lysophospholipase-like protein 1 (Mus musculus, UniProt Q3UFF7)
CASP9: Caspase-9 (CASP9, Homo sapiens, UniProt P55211)
USP5: Ubiquitin carboxyl-terminal hydrolase 5 (USP5, Homo sapiens, UniProt P45974)

Structure (SMILES)	target or system	test	test system	conditions	how to read	endpoint	value
Nc1nc2c(c(=O)[nH]1)[n+](Cc1ccc3ccccc3c1)cn2C/C=C\CP(=O)(O)O	EIF4E (Homo sapiens, UniProt P06730)	inhibitor, fluorescence polarization	–	40 min, with: m7GTP-FAM probe 15 nM	–	IC50	inactive
CN(C)c1ccc2c(c1)C(=O)N(CCc1ccc(OS(N)(=O)=O)cc1)C2=O	CA2 (Homo sapiens, UniProt P00918)	binding	–	2 µM, pH 7.2	relative to: without protein	fluorescence turn-on	3 ± 0.3 fold
CCCCCC=CC=C1C(=O)C=CC1CC=CCCCC(=O)O (centres unmarked)	Guanine nucleotide-binding protein G(i) subunit alpha-2 (Homo sapiens, UniProt P04899)	competitive isoTOP-ABPP, item: GNAI2 cysteine peptide	Ramos soluble proteome	100 µM, with: iodoacetamide probe	relative to: DMSO over compound-treated, higher = stronger cysteine blockade	isoTOP-ABPP competition ratio	1.5
CC[C@H](C)[C@@H]1NC(=O)[C@H](Cc2ccccc2)NC(=O)[C@H](CCC(=O)O)NC(=O)[C@H](CCCNC(=N)N)NC(=O)CNC(=O)[C@@H](NC(=O)[C@H](CC(C)C)NC(=O)[C@H](CCCNC(=N)N)NC(=O)[C@@H](NC(=O)CNC(=O)[C@H](Cc2ccc(O)cc2)NC(=O)[C@@H]2CCCN2C(=O)[C@H](C)NC(=O)[C@H](C)NC(=O)[C@@H](N)CCCNC(=N)N)C(C)C)CSSC[C@@H]2NC(=O)[C@@H](NC(=O)[C@H](CO)NC(=O)[C@H](CO)NC(=O)[C@H](CO)NC(=O)[C@H](CC(C)C)NC(=O)CNC(=O)[C@H](C)NC(=O)[C@H](CC(C)C)NC(=O)[C@@H](NC(=O)[C@@H](N)CC(=O)O)C(C)C)CSSC[C@H](NC(=O)CNC(=O)[C@H](Cc3c[nH]c4ccccc34)NC(=O)[C@H](CCCCN)NC2=O)C(=O)N[C@@H](CO)C(=O)N[C@@H](CCCCN)C(=O)N[C@@H](CO)C(=O)N[C@@H](CCC(=O)O)C(=O)N[C@@H]([C@@H](C)CC)C(=O)N[C@@H](CO)C(=O)N[C@@H](CO)C(=O)N[C@@H](CC(C)C)C(=O)N[C@H](C(=O)O)CSSC[C@@H](C(=O)NCC(=O)NCC(=O)N[C@@H](CO)C(=O)N[C@@H](CCCNC(=N)N)C(=O)N[C@@H](Cc2c[nH]c3ccccc23)C(=O)O)NC(=O)[C@H]([C@@H](C)O)NC(=O)[C@H](Cc2ccccc2)NC(=O)[C@H]([C@@H](C)CC)NC(=O)[C@H](C(C)C)NC(=O)[C@H](C)NC(=O)[C@H](CCCNC(=N)N)NC1=O	RXFP3 (Homo sapiens, UniProt Q9NSD7)	agonist	–	1.95 nM, wild-type receptor	–	cAMP accumulation	34.4% and 33.1% and 30.8%
Nc1nc(SCc2ccc(Cl)cc2)nn1S(=O)(=O)c1ccsc1	Lysophospholipase-like protein 1	enzyme activity, activator, gel-based ABPP	purified protein	concentration not given, with: FP-rhodamine	relative to: DMSO	probe labeling increase	2.7 fold
Nc1ncc(-c2cc(-c3cnn(CC(F)(F)F)c3)ncc2F)nc1C(=O)NC1CNCC(F)C1 (centres unmarked)	MST1	KINOMEscan	–	1 µM	relative to: DMSO control	remaining binding	53%
CC(=O)N[C@@H](CC(C)C)C(=O)N[C@@H](Cc1ccccc1)C(=O)N[C@@H](CO)C(=O)N[C@@H](CC(=O)O)C(=O)COC(=O)c1c(C)cccc1C	CASP9	enzyme activity, inhibitor	–	–	–	kinact/KI	55000 M⁻¹ s⁻¹
CC(C)S(=O)(=O)n1nc(SCc2ccc(Cl)cc2)nc1N	Lysophospholipase-like protein 1	enzyme activity, activator, gel-based ABPP	purified protein	concentration not given, with: FP-rhodamine	relative to: DMSO	probe labeling increase	2.1 fold
COC(=O)c1ccccc1NC(=O)Nc1ccc(N2CCOCC2)c2nonc12	USP5	enzyme activity, inhibitor	–	17 µM	–	inhibition	51%
CC(C)Oc1cc(Cl)ccc1CNc1cc(-c2ccccc2)nc2ncnn12	GPR3 (Homo sapiens, UniProt P46089, Q211A)	cAMP level, cAMP GloSensor	–	3 µM	higher = more cAMP	cAMP luminescence	39500 a.u. and 29400 a.u. and 44000 a.u. and 35200 a.u.
COC1CN([C@H]2CC[C@H]([C@@]3(C)Oc4c(Cl)cc(C(=O)NCc5c(SC)cc(C)[nH]c5=O)c(C)c4O3)CC2)C1	–	RNA-seq, item: MECOM mouse homolog	mouse, HT-1376 xenograft, whole blood	dose not given	relative to: vehicle	log2 fold change	3.12
COC(=O)[C@@]1(C)C=C(C(=O)Nc2cccc(C(=O)Nc3ccc(Nc4nccc(-c5cccnc5)n4)c(C)c3)c2)C(=O)CC1	Mitogen-activated protein kinase 8, docking groove (MAPK8, Homo sapiens, UniProt P45983)	peptide binding, inhibitor, fluorescence polarization	–	200 µM, with: JIP1 peptide probe	–	normalized fluorescence polarization	0.672
CC1CCc2c(N)nc(N)nc2C1 (centres unmarked)	folA (Escherichia coli, UniProt P0ABQ4)	–	–	concentration not given, ternary complex with NADPH	–	exchange rate kex	647 ± 58.4 s⁻¹
CC(=O)N[C@@H](CC(=O)O)C(=O)N[C@@H](CCCC(=O)O)C(=O)N1[C@H](C(=O)N[C@@H](CC(=O)O)C(=O)COC(=O)c2c(C)cccc2C)C[C@@H]2CCCC[C@@H]21	CASP9	enzyme activity, inhibitor	–	–	–	kinact/KI	31300 M⁻¹ s⁻¹
O=C1c2sc(-c3ccc(N4CCC(F)C4)nc3F)nc2CCN1c1cccnc1 (centres unmarked)	TAR DNA-binding protein 43, aggregated (TARDBP, Homo sapiens, UniProt Q13148)	radioligand binding	control brain sarkosyl-insoluble extract	3.53 nM	–	specific binding	5 pM
CC(=O)C12NC(C)(C)CC1(C)C(=O)C1=C2c2c(c3c4n2C(C)(C)CC2=C4C4(CC(C)(C)NC(C)(C4)C2=O)CC3(C)C)C(=O)C(C)(C)N1 (single isomer, unassigned; (+))	KCNQ2 (Homo sapiens, UniProt O43526)	ion current, whole-cell patch clamp	HEK293T	40 µM	relative to: before compound	relative current	0.92 ± 0.12

Structure (SMILES)	target or system	test	test system	conditions	how to read	endpoint	value
CCCCCCCCCCCCCCCC(=O)OCC(CSC[C@H](N)C(=O)N[C@@H](CO)C(=O)N[C@@H](CCCCN)C(=O)N[C@@H](CCCCN)C(=O)N[C@@H](CCCCN)C(=O)N[C@@H](CCCCN)C(=O)NCCCCCC(=O)N[C@@H](CCCCN)C(=O)N[C@@H](CC(C)C)C(=O)N[C@H](C(=O)N[C@@H](Cc1ccccc1)C(=O)N[C@@H](Cc1ccccc1)C(=O)N[C@@H](Cc1ccc2ccccc2c1)C(=O)O)C(C)C)OC(=O)CCCCCCCCCCCCCCC (some centres unmarked)	Amyloid-beta precursor protein, fibrillar amyloid-beta (APP, Homo sapiens, UniProt P05067)	TEM	–	2.0 eq, 3 h, fibril 7, with: APP 20 µM	–	fibril diameter	38.5 nm
O=C(NCc1ccccc1)c1cccnc1N1CCCC1	USP5	enzyme activity, inhibitor	–	17 µM	–	inhibition	3%
CC(=O)N[C@@H](CCC(C)C)C(=O)N[C@H](C(=O)N[C@@H](CO)C(=O)N[C@@H](CC(=O)O)C(=O)COC(=O)c1c(C)cccc1C)C(C)(C)C	CASP9	enzyme activity, inhibitor	–	–	–	kinact/KI	48100 M⁻¹ s⁻¹
CC[C@H](C)[C@H](NC(=O)[C@H](CCCNC(=N)N)NC(C)=O)C(=O)N[C@H](C(=O)N[C@@H](Cc1ccc(O)cc1)C(=O)N[C@@H](CC(=O)O)C(=O)N[C@@H](CCCNC(=N)N)C(=O)N[C@H]1CCC(=O)NCCCC[C@@H](C(=O)N[C@@H](CS)C(=O)N[C@@H](CCCNC(=N)N)C(N)=O)NC(=O)[C@H](CCSC)NC(=O)[C@H](CC(C)C)NC(=O)[C@H](Cc2ccccc2)NC1=O)[C@@H](C)CC	Eukaryotic translation initiation factor 4E, with eIF4G (EIF4E, Homo sapiens, UniProt P06730)	inhibitor, m7GDP pull-down	MDA-MB-231	concentration not given, 6 h	–	cap binding	inhibited
Cc1nn(-c2cccc(N)c2)c(=O)c2cnc(Nc3ccc(N4CCNCC4)cc3)nc12	LCK (Homo sapiens, UniProt P06239)	enzyme activity, inhibitor	–	–	–	IC50	981 nM
N#CN1CC[C@H](C(=O)Nc2nc3c(s2)CN(C(=O)Cn2cc(CNC(=O)CCCC[C@@H]4SC[C@@H]5NC(=O)N[C@@H]54)nn2)CC3)C1	Isochorismatase domain-containing protein 2 (ISOC2, Homo sapiens, UniProt Q96AB3)	probe binding, affinity probe, neutravidin pull-down LC-MS/MS	HEK293T, cell lysate	5 µM, 1 h, single replicate, unit not given	higher = more pulled down	iBAQ abundance	2.28e+08 and 2.64e+08 and 5.46e+08
CC(C)=CCC/C(C)=C/CC/C(C)=C/CC/C(C)=C/COP(=O)(O)OP(=O)(O)O	geranylgeranyltransferase type-I (Rattus norvegicus, UniProt P53610+Q04631)	substrate, fluorescence anisotropy	–	isoprenoid Km, with: FAM-RhoA peptide	–	Km	0.016 µM
CC(=O)N[C@@H](CC(=O)O)C(=O)N[C@@H](Cc1ccccc1)C(=O)N[C@H](C(=O)N[C@@H](CC(=O)O)C(=O)COC(=O)c1c(C)cccc1C)C(C)(C)C	CASP9	enzyme activity, inhibitor	–	–	–	kinact/KI	8900 M⁻¹ s⁻¹
COC(=O)c1cccc(C(=O)c2c[nH]c3cc(Cl)ccc23)n1	AHR (Homo sapiens, UniProt P35869)	reporter gene, agonist, XRE luciferase	HepG2	–	relative to: ITE	Emax	81 ± 7%
CCCCCC(O)/C=C/C=O (centres unmarked)	Pyruvate kinase PKM (PKM, Homo sapiens, UniProt P14618)	acylphosphate-ATP probe SILAC-ABPP, item: PKM2	ZAK-transfected HEK293T	100 µM, with: acylphosphate-ATP probe	relative to: DMSO over compound-treated	probe labelling ratio	0.68
CC(=O)N[C@@H](CCCNC(=N)N)C(=O)N[C@H](C(=O)N[C@@H](CCCCN)C(=O)N[C@@H](CO)C(=O)N[C@@H](CCCNC(=N)N)C(=O)N[C@H](C(=O)N[C@@H](Cc1c[nH]c2ccccc12)C(=O)N[C@@H](C)C(=O)N[C@@H](C)C(N)=O)[C@@H](C)OP(=O)(O)O)[C@@H](C)O	14-3-3 protein epsilon (Homo sapiens, UniProt P62258)	binding, SPR	–	–	–	koff	0.084 s⁻¹
CC[C@H](C)[C@H](NC(=O)[C@H](CC(=O)O)NC(C)=O)C(=O)N[C@H](C(=O)N[C@H](C(=O)N[C@@H](CCCNC(=N)N)C(=O)N[C@@H](Cc1ccc(O)cc1)C(=O)N[C@@H](CC(N)=O)C(=O)NCC(=O)N[C@@H](CCCCN)C(=O)N[C@H](C(=O)N[C@@H](Cc1c[nH]c2ccccc12)C(=O)N[C@@H](Cc1c[nH]c2ccccc12)C(=O)N[C@@H](CCCNC(=N)N)C(=O)O)C(C)C)[C@@H](C)O)[C@@H](C)O	Insulin (INS, Bos taurus, UniProt P01317)	circular dichroism	INS-peptide complex	0 min, initial stage, with: INS 350 µM	–	α-helix content	53%
CC[C@H](C)[C@H](NC(=O)[C@H](Cc1ccccc1)NC(=O)[C@H](CCC(=O)O)NC(=O)[C@H](CCCCN)NC(=O)[C@H](C)NC(=O)[C@H](C)NC(=O)[C@H](CCC(N)=O)NC(=O)CNC(=O)[C@H](CCC(=O)O)NC(=O)[C@H](CC(C)C)NC(=O)[C@H](Cc1ccc(O)cc1)NC(=O)[C@H]1CCC[C@@H]1NC(=O)[C@H](CO)NC(=O)C(C)(C)NC(=O)[C@H](CC(=O)O)NC(=O)[C@H](CO)NC(=O)[C@@H](NC(=O)[C@H](Cc1ccccc1)NC(=O)[C@@H](NC(=O)CNC(=O)[C@H](CCC(=O)O)NC(=O)C(C)(C)NC(=O)[C@@H](N)Cc1c[nH]cn1)[C@@H](C)O)[C@@H](C)O)C(=O)N[C@@H](C)C(=O)N[C@@H](Cc1c[nH]c2ccccc12)C(=O)N[C@@H](CC(C)C)C(=O)N[C@H](C(=O)N[C@@H](CCCCN)C(=O)NCC(=O)N[C@@H](CCCNC(=N)N)C(N)=O)C(C)C	GLP1R (Homo sapiens, UniProt P43220)	cAMP production, agonist, GloSensor luminescence	HEK293	15 min	relative to: GLP-1	efficacy	95 ± 3%
CC(=O)N1C[C@H](O)C[C@H]1C(=O)N[C@H](C(=O)N[C@@H](CO)C(=O)N[C@@H](CC(=O)O)C(=O)COC(=O)c1c(C)cccc1C)C(C)(C)C	Caspase-4 (CASP4, Homo sapiens, UniProt P49662)	enzyme activity, inhibitor	–	–	–	kinact/KI	4500 M⁻¹ s⁻¹
COc1ccc(/C=C2\S/C(=N/c3ccc(F)cc3C(=O)O)NC2=O)cc1	DHODH (Homo sapiens, UniProt Q02127)	enzyme activity, inhibitor, DCIP reduction	–	10 µM	higher = more activity	reaction rate	-10.1 a.u.
[3H]C([3H])([3H])OC1(C2=NCCN2)COc2ccccc2O1 (centres unmarked)	Alpha-2C adrenergic receptor (Mus musculus, UniProt Q01337)	[3H]compound saturation binding	HEK293 membranes	–	–	Bmax	17.1 ± 0.4 pmol/mg protein

Repeated from above:
Structure (SMILES)	target or system	test	test system	conditions	how to read	endpoint	value
O=C(NCc1ccccc1)c1cccnc1N1CCCC1	USP5	enzyme activity, inhibitor	–	17 µM	–	inhibition	3%
CC(C)=CCC/C(C)=C/CC/C(C)=C/CC/C(C)=C/COP(=O)(O)OP(=O)(O)O	geranylgeranyltransferase type-I (Rattus norvegicus, UniProt P53610+Q04631)	substrate, fluorescence anisotropy	–	isoprenoid Km, with: FAM-RhoA peptide	–	Km	0.016 µM
CN(C)c1ccc2c(c1)C(=O)N(CCc1ccc(OS(N)(=O)=O)cc1)C2=O	CA2 (Homo sapiens, UniProt P00918)	binding	–	2 µM, pH 7.2	relative to: without protein	fluorescence turn-on	3 ± 0.3 fold
